Experimental data collected from several papers.
Lines come from different studies, so protocols differ.
rep main protease: Replicase polyprotein 1ab, main protease (rep, Severe acute respiratory syndrome coronavirus 2, UniProt P0DTD1)

ω-conotoxin GVIA — inhibition (Cacna1b (Rattus norvegicus, UniProt Q02294); binding; rat; dose not given): 100%
Rv1045 (Mycobacterium tuberculosis, UniProt P96356) — Km (Nc1ccn([C@@H]2O[C@H](COP(=O)(O)OP(=O)(O)OP(=O)(O)O)[C@@H](O)[C@H]2O)c(=O)n1; steady-state kinetics; pH 8.5, 37 °C): 136 µM
dmhA S134A (Campylobacter jejuni) — Km (Nc1nc2c(ncn2[C@@H]2O[C@H](COP(=O)(O)OP(=O)(O)O[C@H]3O[C@H]([C@H](O)CO)[C@@H](O)[C@H](O)[C@@H]3O)[C@@H](O)[C@H]2O)c(=O)[nH]1; steady-state kinetics; pH 7.5, 30 °C): 26 µM
cbh (Clostridium perfringens, UniProt P54965) — Km (CC(C)C[C@H](NC(=O)CC[C@@H](C)[C@H]1CC[C@H]2[C@@H]3[C@H](O)C[C@@H]4C[C@H](O)CC[C@]4(C)[C@H]3C[C@H](O)[C@]12C)C(=O)O; steady-state kinetics; pH 6.2, 37 °C): 1940 µM
catechin gallate — IC50 (rep main protease; enzyme activity, inhibitor; 63 min preincubation): < 10 µM
bismuth potassium citrate — IC50 (Replicase polyprotein 1ab, nsp13 helicase (rep, Severe acute respiratory syndrome coronavirus 2, UniProt P0DTD1); helicase activity; SARS-CoV-2): 0.44 µM
dmhA T187A (Campylobacter jejuni) — Km (Nc1nc2c(ncn2[C@@H]2O[C@H](COP(=O)(O)OP(=O)(O)O[C@H]3O[C@H]([C@H](O)CO)[C@@H](O)[C@H](O)[C@@H]3O)[C@@H](O)[C@H]2O)c(=O)[nH]1; steady-state kinetics; pH 7.5, 30 °C): 165 µM
rhodiosin — IC50 (rep main protease; enzyme activity, inhibitor; 63 min preincubation): 1.45 µM
